Measured values pooled from the literature.
A part holds a random share of what one study measured.
Chain of UniProt Q9UQM7 (whole entry, looked up): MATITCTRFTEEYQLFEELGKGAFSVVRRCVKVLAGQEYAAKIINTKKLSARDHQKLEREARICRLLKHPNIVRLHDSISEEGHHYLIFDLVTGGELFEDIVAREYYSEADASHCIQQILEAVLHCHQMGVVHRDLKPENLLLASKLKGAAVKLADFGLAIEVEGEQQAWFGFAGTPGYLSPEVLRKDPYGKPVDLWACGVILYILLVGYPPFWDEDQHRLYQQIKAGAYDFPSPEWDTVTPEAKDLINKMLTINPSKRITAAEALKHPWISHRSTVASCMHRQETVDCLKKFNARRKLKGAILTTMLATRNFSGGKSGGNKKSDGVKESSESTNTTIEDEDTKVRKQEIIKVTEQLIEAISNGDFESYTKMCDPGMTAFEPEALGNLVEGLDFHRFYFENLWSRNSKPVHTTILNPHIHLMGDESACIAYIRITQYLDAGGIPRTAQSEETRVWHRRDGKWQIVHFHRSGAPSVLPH
Chain of UniProt P51812 (whole entry, looked up): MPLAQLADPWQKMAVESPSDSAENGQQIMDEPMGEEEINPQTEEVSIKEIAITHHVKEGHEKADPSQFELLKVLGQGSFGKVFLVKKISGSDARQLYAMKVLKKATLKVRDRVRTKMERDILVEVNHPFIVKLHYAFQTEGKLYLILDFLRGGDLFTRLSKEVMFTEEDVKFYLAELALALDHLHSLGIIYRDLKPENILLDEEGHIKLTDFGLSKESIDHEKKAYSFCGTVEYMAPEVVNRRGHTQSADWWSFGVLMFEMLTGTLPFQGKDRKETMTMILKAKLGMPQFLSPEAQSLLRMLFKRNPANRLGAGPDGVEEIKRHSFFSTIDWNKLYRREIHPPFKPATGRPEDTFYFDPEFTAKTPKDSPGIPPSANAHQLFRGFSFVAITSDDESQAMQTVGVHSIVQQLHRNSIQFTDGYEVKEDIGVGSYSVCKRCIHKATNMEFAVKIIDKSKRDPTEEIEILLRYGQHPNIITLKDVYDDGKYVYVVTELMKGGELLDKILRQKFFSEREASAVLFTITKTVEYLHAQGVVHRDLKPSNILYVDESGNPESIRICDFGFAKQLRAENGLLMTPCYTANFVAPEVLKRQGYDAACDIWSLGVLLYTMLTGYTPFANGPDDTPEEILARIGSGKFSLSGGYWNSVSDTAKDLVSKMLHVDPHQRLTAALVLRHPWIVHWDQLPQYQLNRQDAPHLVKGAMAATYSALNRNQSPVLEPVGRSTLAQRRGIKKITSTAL
Chain of UniProt P32298 (whole entry, looked up): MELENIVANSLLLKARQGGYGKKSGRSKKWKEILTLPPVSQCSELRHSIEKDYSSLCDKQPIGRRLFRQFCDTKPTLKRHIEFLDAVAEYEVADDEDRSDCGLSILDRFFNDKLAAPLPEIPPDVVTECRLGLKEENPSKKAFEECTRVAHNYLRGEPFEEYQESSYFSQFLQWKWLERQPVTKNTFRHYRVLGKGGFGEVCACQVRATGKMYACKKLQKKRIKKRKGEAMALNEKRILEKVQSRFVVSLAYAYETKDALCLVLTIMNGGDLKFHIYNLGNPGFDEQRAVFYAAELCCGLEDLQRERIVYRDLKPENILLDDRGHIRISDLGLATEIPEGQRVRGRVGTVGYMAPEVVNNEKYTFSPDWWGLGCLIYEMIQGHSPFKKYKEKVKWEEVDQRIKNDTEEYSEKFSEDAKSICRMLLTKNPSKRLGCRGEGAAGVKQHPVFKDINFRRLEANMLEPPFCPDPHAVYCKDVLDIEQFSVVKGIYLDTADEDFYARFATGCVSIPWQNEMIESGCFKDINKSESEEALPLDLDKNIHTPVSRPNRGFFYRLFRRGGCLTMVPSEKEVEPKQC
Chain of UniProt P34947 (whole entry, looked up): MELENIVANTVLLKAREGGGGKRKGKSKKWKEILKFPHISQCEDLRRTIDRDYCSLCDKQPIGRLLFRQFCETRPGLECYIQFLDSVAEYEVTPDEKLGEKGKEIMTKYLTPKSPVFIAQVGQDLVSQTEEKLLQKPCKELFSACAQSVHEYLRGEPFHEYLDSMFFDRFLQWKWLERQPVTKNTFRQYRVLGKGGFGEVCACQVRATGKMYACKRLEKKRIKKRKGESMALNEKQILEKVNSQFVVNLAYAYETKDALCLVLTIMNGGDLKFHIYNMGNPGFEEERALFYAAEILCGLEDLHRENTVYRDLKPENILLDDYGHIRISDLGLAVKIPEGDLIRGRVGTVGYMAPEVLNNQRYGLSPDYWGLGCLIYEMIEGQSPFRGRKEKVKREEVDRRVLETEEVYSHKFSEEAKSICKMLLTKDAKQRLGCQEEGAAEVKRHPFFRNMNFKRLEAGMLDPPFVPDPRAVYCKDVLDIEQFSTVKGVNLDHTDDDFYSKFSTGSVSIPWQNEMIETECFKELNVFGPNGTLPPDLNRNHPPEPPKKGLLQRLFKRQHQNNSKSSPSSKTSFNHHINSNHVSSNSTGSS
Chain of UniProt P07949 (whole entry, looked up): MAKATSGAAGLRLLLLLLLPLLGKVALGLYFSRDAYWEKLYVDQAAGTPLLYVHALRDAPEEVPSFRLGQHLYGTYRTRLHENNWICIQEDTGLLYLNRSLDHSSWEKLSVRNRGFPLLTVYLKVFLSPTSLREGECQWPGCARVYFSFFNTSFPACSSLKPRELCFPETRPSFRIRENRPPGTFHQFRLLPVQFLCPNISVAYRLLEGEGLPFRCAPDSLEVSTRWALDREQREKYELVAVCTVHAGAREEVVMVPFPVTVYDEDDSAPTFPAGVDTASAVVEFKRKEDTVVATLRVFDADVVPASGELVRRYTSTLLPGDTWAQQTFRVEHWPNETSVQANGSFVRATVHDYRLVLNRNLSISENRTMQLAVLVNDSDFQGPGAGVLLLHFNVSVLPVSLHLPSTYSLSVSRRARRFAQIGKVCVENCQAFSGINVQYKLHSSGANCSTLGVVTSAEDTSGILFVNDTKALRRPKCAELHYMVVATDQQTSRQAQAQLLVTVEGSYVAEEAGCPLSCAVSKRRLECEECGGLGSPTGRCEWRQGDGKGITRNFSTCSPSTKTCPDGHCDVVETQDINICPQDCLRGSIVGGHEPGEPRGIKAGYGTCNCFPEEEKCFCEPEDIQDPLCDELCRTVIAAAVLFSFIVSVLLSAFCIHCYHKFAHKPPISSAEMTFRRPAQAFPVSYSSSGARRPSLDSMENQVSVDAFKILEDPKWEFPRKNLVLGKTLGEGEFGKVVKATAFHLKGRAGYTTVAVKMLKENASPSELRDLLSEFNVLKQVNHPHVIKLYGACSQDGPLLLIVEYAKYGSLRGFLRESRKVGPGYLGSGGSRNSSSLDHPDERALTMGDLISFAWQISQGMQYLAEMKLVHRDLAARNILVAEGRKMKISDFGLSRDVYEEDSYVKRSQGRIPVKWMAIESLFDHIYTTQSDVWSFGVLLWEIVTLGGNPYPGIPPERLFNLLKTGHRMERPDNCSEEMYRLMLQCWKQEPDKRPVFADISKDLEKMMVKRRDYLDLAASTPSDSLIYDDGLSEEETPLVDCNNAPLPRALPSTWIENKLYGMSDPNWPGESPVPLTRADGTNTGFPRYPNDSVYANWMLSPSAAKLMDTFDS
Chain of UniProt Q13163 (whole entry, looked up): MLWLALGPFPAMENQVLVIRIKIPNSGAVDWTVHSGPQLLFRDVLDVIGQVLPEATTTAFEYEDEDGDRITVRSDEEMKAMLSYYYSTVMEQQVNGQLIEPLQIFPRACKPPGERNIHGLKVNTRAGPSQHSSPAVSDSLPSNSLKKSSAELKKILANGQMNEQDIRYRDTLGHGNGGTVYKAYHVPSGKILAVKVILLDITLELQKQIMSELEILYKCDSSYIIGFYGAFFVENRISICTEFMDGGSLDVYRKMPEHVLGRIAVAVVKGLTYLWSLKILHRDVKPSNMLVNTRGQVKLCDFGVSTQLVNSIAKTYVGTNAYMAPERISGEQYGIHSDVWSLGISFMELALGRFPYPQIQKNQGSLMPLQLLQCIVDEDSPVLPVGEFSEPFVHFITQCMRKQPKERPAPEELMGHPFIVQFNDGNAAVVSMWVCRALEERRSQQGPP
Chain of UniProt Q14680 (whole entry, looked up): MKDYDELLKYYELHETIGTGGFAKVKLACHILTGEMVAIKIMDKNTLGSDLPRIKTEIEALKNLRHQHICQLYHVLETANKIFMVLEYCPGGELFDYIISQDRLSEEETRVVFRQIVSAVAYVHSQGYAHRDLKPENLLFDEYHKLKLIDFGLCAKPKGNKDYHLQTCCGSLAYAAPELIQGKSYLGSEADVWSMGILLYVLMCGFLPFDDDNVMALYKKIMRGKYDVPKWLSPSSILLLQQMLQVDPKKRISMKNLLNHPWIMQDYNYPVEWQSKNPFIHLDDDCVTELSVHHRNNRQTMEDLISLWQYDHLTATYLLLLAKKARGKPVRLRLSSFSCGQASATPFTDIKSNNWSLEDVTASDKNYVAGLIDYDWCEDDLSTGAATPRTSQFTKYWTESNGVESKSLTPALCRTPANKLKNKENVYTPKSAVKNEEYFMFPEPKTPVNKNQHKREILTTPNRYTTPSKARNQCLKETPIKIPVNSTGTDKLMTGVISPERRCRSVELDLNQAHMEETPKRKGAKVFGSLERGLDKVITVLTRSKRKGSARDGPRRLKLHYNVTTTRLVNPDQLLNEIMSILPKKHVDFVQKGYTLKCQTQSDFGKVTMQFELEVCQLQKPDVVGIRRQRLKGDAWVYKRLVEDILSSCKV
Chain of UniProt P22612 (whole entry, looked up): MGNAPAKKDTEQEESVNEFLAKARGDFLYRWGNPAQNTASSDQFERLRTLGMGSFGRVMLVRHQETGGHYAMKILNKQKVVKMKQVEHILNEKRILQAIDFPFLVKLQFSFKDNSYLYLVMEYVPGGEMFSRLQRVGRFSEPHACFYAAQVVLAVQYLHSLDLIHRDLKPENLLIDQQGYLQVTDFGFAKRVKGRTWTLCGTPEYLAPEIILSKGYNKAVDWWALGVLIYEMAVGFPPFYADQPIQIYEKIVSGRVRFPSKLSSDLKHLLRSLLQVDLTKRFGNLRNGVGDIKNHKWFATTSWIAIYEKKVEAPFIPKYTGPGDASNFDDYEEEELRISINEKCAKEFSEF

Study 1 — host: mouse; matrix: microsomes or S9; tested at: 2 µM; time: 0.5 h
SMILES | remaining compound [%]
Clc1cc2nc(-c3cn[nH]c3)[nH]c2cc1Cl | 0.729
c1ccc(CCNCc2cccc(Oc3nnnn3-c3ccccc3)c2)cc1 | 17.9
Cc1ccc(Cl)cc1N1CCN(Cc2nc3c([nH]2)c(=O)[nH]c(=O)n3C)CC1 | 65
O=C(C1Cc2cc(Cl)ccc2O1)N1CCCC(O)(c2ccc(F)cc2)CC1 (stereo not drawn) | 10.2
Cc1cc(Br)ccc1NC(=O)C(NS(=O)(=O)c1cccs1)c1ccccc1 (stereo not drawn) | 8.63
Cc1ccc(C(C)C)c(OCCNC(=O)CCCCNS(=O)(=O)c2ccccc2)c1 | 0.634
CCOC(=O)N1C[C@H]2CCCN(C(=O)C3CCCN3S(=O)(=O)c3ccc(C)cc3)[C@@H]2C1 (stereo partly drawn) | 6.62
CN1C(=O)c2cccc(-c3cc(Cl)cc(Cl)c3)c2C1(C)C | 39.7
CCc1ccc(-c2nnc(N3CCN(C(C)c4nccs4)CC3)n2CCCOC)cc1 (stereo not drawn) | 4.28
CCc1c(C)nc2cc(-c3cc(OC)cc(OC)c3)nn2c1NCCN(CC)CC | 2.87
COc1cc(NC(=O)CCC(=O)OC(C)C)nc(OC)n1 | 0.209
O=c1[nH]nc(-c2ccc(OCCN3CCCCC3)cc2)cc1-c1ccc(Cl)cc1 | 78.3
CC(C)(C)OC(=O)COc1ccc(-c2cc3ccccc3[nH]c2=O)cc1 | 3.47
Cc1ccc(Nc2nc3ccccc3n3nnnc23)cc1 | 3.93
O=S(=O)(Cc1cc(F)ccc1F)NCCn1ccc(-c2ccsc2)n1 | 3.04
COCCN1CCS(=O)(=O)c2c(Cl)c(F)nc(Oc3ccc(OC)cc3)c21 | 44.6
CSc1nnc(N2C(N)=C(C#N)C3(C(=O)Nc4ccc(F)cc43)C3=C2CC(C)(C)CC3=O)s1 (stereo not drawn) | 93.3
Cc1cc(C)n(CC(O)CON=C2c3ccccc3-c3ccccc32)n1 (stereo not drawn) | 0.622

Study 2 — read-out: enzyme activity; tested at: 5 µM
SMILES: O=C(Nc1cnn(-c2csc(C(=O)NC3COC3)c2)c1)Nc1c(F)cccc1Cl
target | test | scale | remaining activity [%]
IRAK4 (Homo sapiens, UniProt Q9NWZ3) |  | baseline: untreated control | 97
GRK4 (Homo sapiens, UniProt P32298) |  | baseline: untreated control | 93.5
MAST3 (Homo sapiens, UniProt O60307) | inhibitor |  | 108
GRK5 (Homo sapiens, UniProt P34947) |  | baseline: untreated control | 101
MELK (Homo sapiens, UniProt Q14680) |  | baseline: untreated control | 59.6
LRRK2 (Homo sapiens, UniProt Q5S007) |  | baseline: untreated control | 90.2
CAMK2A (Homo sapiens, UniProt Q9UQM7) |  | baseline: untreated control | 98.5
STK3 (Homo sapiens, UniProt Q13188) |  | baseline: untreated control | 93
MAP3K21 (Homo sapiens, UniProt Q5TCX8) |  | baseline: untreated control | 94.1
MET (Homo sapiens, UniProt P08581) |  | baseline: untreated control | 84.2
PRKACG (Homo sapiens, UniProt P22612) |  | baseline: untreated control | 97
RPS6KA3 (Homo sapiens, UniProt P51812) |  | baseline: untreated control | 78.5
PKN2 (Homo sapiens, UniProt Q16513) |  | baseline: untreated control | 105
MAP2K5 (Homo sapiens, UniProt Q13163) |  | baseline: untreated control | 99.3
MAP2K7 (Homo sapiens, UniProt O14733) |  | baseline: untreated control | 135
RET (Homo sapiens, UniProt P07949) |  | baseline: untreated control | 98.1
Protein kinase C beta type, isoform beta-II (PRKCB, Homo sapiens, UniProt P05771) |  | baseline: untreated control | 98.6

Study 3 — read-out: enzyme activity; action: inhibitor; tested at: 10 µM
Target: Calcium/calmodulin-dependent protein kinase type II subunit alpha (CAMK2A, Homo sapiens, UniProt Q9UQM7)
SMILES | inhibition [%]
COc1cc(/C=C/C(=O)CC(=O)/C=C/c2ccc(O)cc2)ccc1O | 60
COc1cc(OC)c(CCC(=O)c2ccc(O)cc2)c(OC)c1 | 41
NC(N)=NCCCC(=O)O | -9
CCOC(=O)[C@H](CCc1ccccc1)N[C@@H](C)C(=O)N1Cc2ccccc2C[C@H]1C(=O)O | 13
C[C@@H]1NC(=O)[C@@H]2CCCN2C(=O)[C@H](CC(N)=O)NC(=O)[C@@H]2CSSC[C@H](N)C(=O)N[C@H]3CSSC[C@H](NC1=O)C(=O)N[C@@H]([C@@H](C)O)C(=O)NCC(=O)N[C@H](C(=O)N[C@@H](Cc1ccc(O)cc1)C(=O)O)CSSC[C@H](NC(=O)[C@H](Cc1ccc(O)cc1)NC(=O)[C@H](CCC(=O)O)NC3=O)C(=O)N2 | -1
COc1cc(-c2oc3cc(O[C@@H]4O[C@H](CO)[C@@H](O)[C@H](O)[C@H]4O)cc(O)c3c(=O)c2O)ccc1O | -31
CCCCCCCCCCCCCCC[C@@H](O)[C@@H](N)CO | -5
NCCCCCCCC(=O)O | 26
CC(C)C[C@H](NC(=O)[C@H](Cc1ccccc1)NC(=O)c1cnccn1)B(O)O | -1
O=C1C([C@@H]2O[C@H](CO)[C@@H](O)[C@H](O)[C@H]2O)=C(O)/C(=C(O)/C=C/c2ccc(O)cc2)C(=O)C1(O)[C@@H]1O[C@H](CO)[C@@H](O)[C@H](O)[C@H]1O (stereo partly drawn) | -23
CCOC(=O)CC(=O)C(C)(C)C | -35
CCCCCCCCCCCCCCCO | -54
Oc1c(I)cc(I)c2cccnc12 | -1
Cc1ccc(C(=O)C(C)CN2CCCCC2)cc1 (stereo not drawn) | -6
O=C(O)[C@H]1O[C@@H](Oc2c(-c3ccc(O)cc3)oc3cc(O)cc(O)c3c2=O)[C@H](O)[C@@H](O)[C@@H]1O | 48
C=C(C(=O)O)[C@@H]1CC[C@@H](C)[C@@H]2CCC(C)=C[C@@H]21 | 40

Study 4 — read-out: enzyme activity; action: inhibitor; tested at: 0.5 µM; baseline: control
Target: Aurora kinase C (AURKC, Homo sapiens, UniProt Q9UQB9)
Residues (Q9UQB9 1-309): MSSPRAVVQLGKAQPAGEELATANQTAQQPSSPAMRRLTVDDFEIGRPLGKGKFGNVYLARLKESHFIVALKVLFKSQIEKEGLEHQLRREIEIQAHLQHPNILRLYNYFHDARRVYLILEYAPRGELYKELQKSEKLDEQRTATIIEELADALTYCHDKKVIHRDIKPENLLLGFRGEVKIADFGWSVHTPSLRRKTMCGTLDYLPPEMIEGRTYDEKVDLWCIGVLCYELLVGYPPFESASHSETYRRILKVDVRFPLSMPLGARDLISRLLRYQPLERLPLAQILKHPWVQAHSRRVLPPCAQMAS
Compound | remaining activity [%]
CC#CC(=O)Nc1cc2c(Nc3ccc(F)c(Cl)c3)ncnc2cn1 | 95.9
Cc1ccc(NC2=CC(=O)c3sc(C)nc3C2=O)cc1 | 90.7
CCCC(=O)Oc1ccc2[nH]c(C(=O)c3cc4ccccc4[nH]3)cc2c1 | 94.9
CC[n+]1c(/C=C/N(C)c2ccccc2)n(-c2ccccc2)c2ccc(-c3nc4ccccc4s3)cc21 | 91.3
COc1ccc(S(=O)(=O)N(CCO)c2ccccc2CN(C)CC=Cc2ccc(Cl)cc2)cc1 | 96.8
CC(=O)c1ccc(N2CCOCC2)cc1O | 104
Nc1ncnc2c1cnn2-c1ccccc1 | 98.2
NC(=O)c1ccc(N(C(N)=O)c2c(F)cccc2F)nc1-c1ccc(F)cc1F | 83.8
COc1cc(Nc2c(C#N)cnc3cc(OCCCN4CCN(C)CC4)c(OC)cc23)c(Cl)cc1Cl | 82.1
Nc1nccc(-c2c(-c3ccc(F)cc3)ncn2C2CCNCC2)n1 | 97.8
Cc1cc(Nc2nc(-c3ccccc3)nc3ccccc23)n[nH]1 | 51.8
O=C1NC(=O)C(c2c[nH]c3ccccc23)=C1c1c[nH]c2ccccc12 | 101
O=S(=O)(NCCNC/C=C/c1ccc(Br)cc1)c1cccc2cnccc12 | 89
N#CC(=C(N)Sc1ccc(N)cc1)c1ccccc1C(F)(F)F | 97.5
Oc1ccc(Nc2nc(-c3ccc(Cl)cc3)cs2)cc1 | 97
Nc1nc(Nc2ccc(S(N)(=O)=O)cc2)nn1C(=O)c1c(F)cccc1F | 28.3
CC(C)(C)n1nc(Cc2cccc3ccccc23)c2c(N)ncnc21 | 93.2
Fc1ccc(-c2nc3n(c2-c2ccncc2)CCS3)cc1 | 102
Cc1cncc2cccc(S(=O)(=O)N3CCCN(C(=O)CN)C[C@@H]3C)c12 | 71.9
CSc1nc(-c2ccnc(N[C@@H](C)c3ccccc3)c2)c(-c2ccc(F)cc2)[nH]1 (racemic) | 100
CCc1[nH]c(-c2ccc(OC)cc2)nc1-c1ccncc1 | 97.4
